Experimental data gathered from unrelated publications.
Compare with care: the assays were run in different laboratories. Several values in a cell are separate wells, animals, samples, runs or records. Numbers after ± are the reported error.
NTSR1: Neurotensin receptor type 1 (NTSR1, Homo sapiens, UniProt P30989)
Sequence of UniProt P30989 (whole entry, looked up): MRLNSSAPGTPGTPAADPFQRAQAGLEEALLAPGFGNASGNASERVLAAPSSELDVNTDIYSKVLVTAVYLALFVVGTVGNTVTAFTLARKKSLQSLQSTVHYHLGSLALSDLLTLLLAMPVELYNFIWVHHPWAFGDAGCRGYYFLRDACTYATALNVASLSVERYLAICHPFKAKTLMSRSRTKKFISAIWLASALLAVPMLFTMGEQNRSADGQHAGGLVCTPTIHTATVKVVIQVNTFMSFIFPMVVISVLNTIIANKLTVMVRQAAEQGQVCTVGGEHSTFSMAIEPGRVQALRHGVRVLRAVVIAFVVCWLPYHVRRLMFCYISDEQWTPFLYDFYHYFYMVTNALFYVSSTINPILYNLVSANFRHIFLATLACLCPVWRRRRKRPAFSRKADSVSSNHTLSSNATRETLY
Uncharacterized protein: Uncharacterized protein (Trypanosoma brucei brucei, UniProt Q386Q8)
ADRB2: Beta-2 adrenergic receptor (ADRB2, Homo sapiens, UniProt P07550)
Sequence of UniProt P07550 (whole entry, unmodified, looked up): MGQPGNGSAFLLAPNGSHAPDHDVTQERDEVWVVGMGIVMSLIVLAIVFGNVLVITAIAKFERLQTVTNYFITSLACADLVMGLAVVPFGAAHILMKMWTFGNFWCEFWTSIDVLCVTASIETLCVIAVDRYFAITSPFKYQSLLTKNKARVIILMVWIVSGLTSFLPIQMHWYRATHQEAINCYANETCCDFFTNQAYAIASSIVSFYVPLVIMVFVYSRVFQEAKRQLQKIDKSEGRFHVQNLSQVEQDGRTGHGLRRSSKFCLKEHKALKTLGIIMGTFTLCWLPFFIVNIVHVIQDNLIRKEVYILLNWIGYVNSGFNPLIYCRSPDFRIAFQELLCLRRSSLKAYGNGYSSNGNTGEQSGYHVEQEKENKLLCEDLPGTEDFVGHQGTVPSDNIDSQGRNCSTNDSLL
DNA dC->dU-editing enzyme APOBEC-3B: DNA dC->dU-editing enzyme APOBEC-3B (Homo sapiens, UniProt Q9UH17)
Sequence of UniProt Q9UH17 (whole entry, looked up): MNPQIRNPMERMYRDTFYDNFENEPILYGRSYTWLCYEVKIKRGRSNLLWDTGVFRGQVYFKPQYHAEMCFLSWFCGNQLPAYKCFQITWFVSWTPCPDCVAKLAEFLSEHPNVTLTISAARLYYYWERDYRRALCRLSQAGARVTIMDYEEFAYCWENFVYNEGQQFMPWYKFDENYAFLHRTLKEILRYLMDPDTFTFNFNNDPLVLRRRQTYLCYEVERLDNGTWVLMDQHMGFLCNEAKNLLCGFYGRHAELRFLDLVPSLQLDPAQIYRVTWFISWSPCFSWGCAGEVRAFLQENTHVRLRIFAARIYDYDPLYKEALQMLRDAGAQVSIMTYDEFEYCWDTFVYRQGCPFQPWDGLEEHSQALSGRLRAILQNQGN
Gria1: Glutamate receptor 1 (Gria1, Rattus norvegicus, UniProt P19490)
Sequence of UniProt P19490 (whole entry, looked up): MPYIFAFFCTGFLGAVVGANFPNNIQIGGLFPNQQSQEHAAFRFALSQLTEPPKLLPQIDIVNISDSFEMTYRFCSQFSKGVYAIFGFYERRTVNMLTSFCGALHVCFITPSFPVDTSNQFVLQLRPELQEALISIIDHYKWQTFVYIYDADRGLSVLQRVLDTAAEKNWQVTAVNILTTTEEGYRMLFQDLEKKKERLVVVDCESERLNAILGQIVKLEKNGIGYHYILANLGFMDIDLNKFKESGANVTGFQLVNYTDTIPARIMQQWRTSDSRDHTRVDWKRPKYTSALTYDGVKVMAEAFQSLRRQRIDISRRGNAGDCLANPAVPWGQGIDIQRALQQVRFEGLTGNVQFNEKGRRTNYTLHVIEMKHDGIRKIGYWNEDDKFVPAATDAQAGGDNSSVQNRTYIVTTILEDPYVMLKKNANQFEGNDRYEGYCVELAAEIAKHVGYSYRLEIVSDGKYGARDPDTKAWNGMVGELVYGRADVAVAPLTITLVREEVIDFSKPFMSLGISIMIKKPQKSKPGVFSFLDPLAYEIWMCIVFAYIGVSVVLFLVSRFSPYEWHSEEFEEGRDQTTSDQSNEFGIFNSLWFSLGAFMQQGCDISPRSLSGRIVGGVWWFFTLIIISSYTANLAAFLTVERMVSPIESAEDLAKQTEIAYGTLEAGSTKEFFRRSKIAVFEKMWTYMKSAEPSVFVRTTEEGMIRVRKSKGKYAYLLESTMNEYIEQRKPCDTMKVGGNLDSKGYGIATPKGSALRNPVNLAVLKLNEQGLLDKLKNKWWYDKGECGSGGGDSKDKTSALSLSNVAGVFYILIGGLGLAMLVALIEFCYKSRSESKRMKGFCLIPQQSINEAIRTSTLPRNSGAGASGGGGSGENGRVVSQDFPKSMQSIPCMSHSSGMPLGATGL
glpG: Rhomboid protease GlpG (glpG, Escherichia coli, UniProt P09391)
Sequence of UniProt P09391 (whole entry, looked up): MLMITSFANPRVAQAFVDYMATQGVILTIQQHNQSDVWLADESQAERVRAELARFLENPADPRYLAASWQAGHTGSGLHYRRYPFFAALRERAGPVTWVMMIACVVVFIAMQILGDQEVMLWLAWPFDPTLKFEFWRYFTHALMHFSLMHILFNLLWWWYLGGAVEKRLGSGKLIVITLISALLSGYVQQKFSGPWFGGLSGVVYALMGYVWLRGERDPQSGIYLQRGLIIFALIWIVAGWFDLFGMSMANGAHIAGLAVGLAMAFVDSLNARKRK
MAOB: Amine oxidase [flavin-containing] B (MAOB, Homo sapiens, UniProt P27338)
Sequence of UniProt P27338 (whole entry, looked up): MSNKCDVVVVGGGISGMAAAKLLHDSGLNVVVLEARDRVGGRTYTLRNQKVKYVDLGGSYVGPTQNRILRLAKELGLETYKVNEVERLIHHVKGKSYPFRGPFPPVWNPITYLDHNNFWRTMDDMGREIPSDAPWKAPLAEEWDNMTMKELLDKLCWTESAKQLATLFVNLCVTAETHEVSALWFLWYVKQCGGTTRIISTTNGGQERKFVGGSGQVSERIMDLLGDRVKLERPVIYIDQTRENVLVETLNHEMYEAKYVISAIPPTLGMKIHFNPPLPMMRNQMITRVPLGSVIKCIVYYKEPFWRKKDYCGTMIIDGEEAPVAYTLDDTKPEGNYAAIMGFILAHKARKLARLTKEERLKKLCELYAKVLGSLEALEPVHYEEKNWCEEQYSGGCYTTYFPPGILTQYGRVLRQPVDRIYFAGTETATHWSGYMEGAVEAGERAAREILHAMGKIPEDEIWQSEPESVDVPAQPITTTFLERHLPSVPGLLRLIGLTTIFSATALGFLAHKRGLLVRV
SLC7A5: Large neutral amino acids transporter small subunit 1 (SLC7A5, Homo sapiens, UniProt Q01650)
Sequence of UniProt Q01650 (whole entry, looked up): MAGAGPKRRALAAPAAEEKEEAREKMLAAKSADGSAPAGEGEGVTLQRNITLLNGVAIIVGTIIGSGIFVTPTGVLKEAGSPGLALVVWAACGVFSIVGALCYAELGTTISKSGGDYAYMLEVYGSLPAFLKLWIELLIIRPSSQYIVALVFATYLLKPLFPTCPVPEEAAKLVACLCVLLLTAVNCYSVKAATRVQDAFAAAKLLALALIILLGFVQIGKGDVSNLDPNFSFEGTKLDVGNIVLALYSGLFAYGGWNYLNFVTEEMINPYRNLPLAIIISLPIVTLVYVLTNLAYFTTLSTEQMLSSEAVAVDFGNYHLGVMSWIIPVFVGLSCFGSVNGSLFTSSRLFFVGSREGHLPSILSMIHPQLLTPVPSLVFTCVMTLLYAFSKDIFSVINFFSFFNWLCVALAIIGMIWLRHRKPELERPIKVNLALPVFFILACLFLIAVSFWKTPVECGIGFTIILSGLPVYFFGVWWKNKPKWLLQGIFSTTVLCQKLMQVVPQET
CHRM5: Muscarinic acetylcholine receptor M5 (CHRM5, Homo sapiens, UniProt P08912)
ppa: Inorganic pyrophosphatase (ppa, Escherichia coli, UniProt P0A7A9)
Sequence of UniProt P0A7A9 (whole entry, looked up): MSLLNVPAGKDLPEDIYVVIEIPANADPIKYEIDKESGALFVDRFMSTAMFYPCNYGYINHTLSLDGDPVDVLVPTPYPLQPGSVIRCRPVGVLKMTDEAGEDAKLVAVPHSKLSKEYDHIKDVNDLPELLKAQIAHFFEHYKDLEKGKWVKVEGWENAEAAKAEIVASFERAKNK
NNMT: Nicotinamide N-methyltransferase (NNMT, Homo sapiens, UniProt P40261)
Sequence of UniProt P40261 (whole entry, looked up): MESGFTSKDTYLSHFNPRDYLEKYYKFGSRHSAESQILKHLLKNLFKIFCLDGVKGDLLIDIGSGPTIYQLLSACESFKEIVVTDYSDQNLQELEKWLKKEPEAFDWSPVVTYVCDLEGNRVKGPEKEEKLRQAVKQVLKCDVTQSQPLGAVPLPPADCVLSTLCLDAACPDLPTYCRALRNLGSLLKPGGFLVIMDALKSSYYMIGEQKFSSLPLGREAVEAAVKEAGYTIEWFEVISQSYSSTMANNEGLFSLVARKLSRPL
PIK3CD: Phosphatidylinositol 4,5-bisphosphate 3-kinase catalytic subunit delta isoform (PIK3CD, Homo sapiens, UniProt O00329)
Sequence of UniProt O00329 (whole entry, looked up): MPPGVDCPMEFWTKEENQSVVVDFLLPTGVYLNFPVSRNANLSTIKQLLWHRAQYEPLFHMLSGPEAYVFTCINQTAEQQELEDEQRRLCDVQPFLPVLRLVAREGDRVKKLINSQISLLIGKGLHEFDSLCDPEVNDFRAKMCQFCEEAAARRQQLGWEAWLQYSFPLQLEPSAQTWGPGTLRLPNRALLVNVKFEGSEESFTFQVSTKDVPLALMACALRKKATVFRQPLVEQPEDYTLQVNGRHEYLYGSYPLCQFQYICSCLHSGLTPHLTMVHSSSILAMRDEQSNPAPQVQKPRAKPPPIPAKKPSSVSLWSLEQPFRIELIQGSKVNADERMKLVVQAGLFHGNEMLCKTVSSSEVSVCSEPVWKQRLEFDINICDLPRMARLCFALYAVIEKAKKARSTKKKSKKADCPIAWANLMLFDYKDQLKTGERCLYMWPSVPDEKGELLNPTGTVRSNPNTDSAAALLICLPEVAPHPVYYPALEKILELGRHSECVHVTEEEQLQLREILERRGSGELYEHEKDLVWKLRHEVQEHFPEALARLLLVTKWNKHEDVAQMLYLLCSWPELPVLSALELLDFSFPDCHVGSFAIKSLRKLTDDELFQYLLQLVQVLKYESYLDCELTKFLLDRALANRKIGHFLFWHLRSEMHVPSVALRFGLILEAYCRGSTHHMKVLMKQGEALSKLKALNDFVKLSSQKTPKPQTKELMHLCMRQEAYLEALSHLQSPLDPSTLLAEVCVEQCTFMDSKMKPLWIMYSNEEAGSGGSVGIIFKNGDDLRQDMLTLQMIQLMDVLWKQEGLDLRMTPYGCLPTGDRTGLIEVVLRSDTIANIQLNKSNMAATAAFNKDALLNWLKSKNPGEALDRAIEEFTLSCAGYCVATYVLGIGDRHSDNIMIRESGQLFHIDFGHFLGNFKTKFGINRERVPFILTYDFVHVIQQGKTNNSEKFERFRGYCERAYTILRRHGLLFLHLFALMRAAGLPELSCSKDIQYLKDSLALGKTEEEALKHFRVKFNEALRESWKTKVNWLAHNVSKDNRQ

With COc1cccc(OC)c1-c1cc(C(=O)NC2(C(=O)O)C3CC4CC(C3)CC2C4)nn1-c1ccc(C(=O)N(C)CCCN(C)CCCN(C)C(=O)[C@H](CCCCNC(=O)[C@H](CC(C)C)NC(=O)C2OC2C(=O)O)NC(=O)CN2CCN(CC(=O)[O-])CCN(CC(=O)[O-])CCN(CC(=O)[O-])CC2)cc1C(C)C.[Lu+3] (mixture of isomers) the IC50 was 0.014 µM (NTSR1; ligand displacement, radioligand).
CNCc1ccc2c(c1)N(C(=O)OCCC(F)(F)F)[C@H](CNC(=N)N)[C@H]2NC(=O)C(=O)Nc1ccc(Cl)c(F)c1 has an IC50 of 0.58 µM (env (Human immunodeficiency virus 1, UniProt O40222); HIV-1 infection; Cf2Th-CD4/CCR5 cells; 48 h).
Cc1cccc2c1NC(=O)C2(O)CC(=O)c1ccc2c(c1)OCO2 (stereo not drawn) gave an IC50 of 476 µM (Uncharacterized protein; inhibitor, coupled colorimetric; Trypanosoma brucei).
With Brc1cccc(Nc2nc(NC3CCCCC3)c3ccccc3n2)c1 the IC50 was 2.5 µM (ADRB2; β-arrestin recruitment, antagonist).
CCC1(O)CCCN(C(=O)c2cccc(C#N)c2)C1 (stereo not drawn) has an IC50 of 591 µM (DNA dC->dU-editing enzyme APOBEC-3B; enzyme activity, inhibitor, HPLC).
With Oc1ccc(C#Cc2c(O)ccc3c2C(c2ccc(O)cc2)(c2ccc(O)cc2)c2cc(O)ccc2-3)cc1 the IC50 was 0.203 µM (PDE4D (Homo sapiens, UniProt Q08499); enzyme activity, inhibitor).
The IC50 of COc1cc2nc(C3CC3)nc(N3CCC(c4ccccc4OC)CC3)c2cc1OC is reported as 5.58 µM (NTSR1; G protein activation, antagonist).
With CCN(CC)CC(=O)Nc1cccc(-n2cc(-c3ccc4ccc(-c5cn(-c6cccc(NC(=O)CN(CC)CC)c6)nn5)cc4c3)nn2)c1 the IC50 was over 10 µM (ZAP70 (Homo sapiens, UniProt P43403); enzyme activity, inhibitor).
The IC50 of C[N+](C)(CCCN1c2ccccc2CCc2ccc(Cl)cc21)Cc1ccc2ccccc2c1 is reported as 40.6 µM (Uncharacterized protein; enzyme activity, inhibitor, coupled colorimetric; with: E. coli pyrophosphatase coupling).
With COC(=O)Cc1cc2c(cc1C(=O)c1ccccc1)OCO2 the IC50 was 6.17 µM (Gria1; ion current, patch clamp).
The IC50 of Cc1ccc(S(=O)(=O)N2C(=O)CC2c2ccccc2)cc1 (stereo not drawn) is reported as over 100 µM (glpG; substrate cleavage, inhibitor; NR698).
COc1ccccc1C1CCN(c2nc(C3(C)CCCC3)nc3ccc(N(C)CCO)cc23)CC1 has an IC50 of 11.7 µM (NTSR1; G protein activation, antagonist, BRET).
With CC(C)c1ccc(/C=C/C(=O)c2c[nH]c3ccccc23)cc1 the IC50 was 0.481 µM (MAOB; enzyme activity, inhibitor).
The IC50 of CC1(C)C(=O)N=C2C1=C(O)C(=O)c1ccccc12 is reported as over 100 µM (EHMT1 (Homo sapiens, UniProt Q9H9B1); enzyme activity, inhibitor).
With N[C@@H](Cc1c[nH]c2ccc(OCc3ccccc3-c3ccccc3)cc12)C(=O)O the IC50 was 7.97 µM (SLC7A5; transporter uptake, inhibitor, radiometric).
O=C(CCNC(=O)CNC(=O)CC(c1ccccc1)(c1ccccc1)c1ccccc1)NC[C@@H]1CCCN(C(=O)c2ccc(F)cc2)C1 gave an IC50 of over 30 µM (CHRM5; ligand displacement, radioligand; cell membranes).
CCC1(O)CCCN(C(=O)c2ccc(-c3ccccc3C(F)(F)F)cc2)C1 (stereo not drawn) gave an IC50 of 1100 µM (DNA dC->dU-editing enzyme APOBEC-3B; ligand displacement, FP).
The IC50 of O=C(CC1(O)C(=O)Nc2cc(Cl)cc(Cl)c21)c1ccc2c(c1)OCO2 (stereo not drawn) is reported as over 100 µM (ppa; enzyme activity, inhibitor).
CNc1cc(C)c(C(N)=O)cn1 gave an IC50 of 0.0631 µM and < 0.1 µM (NNMT; enzyme activity in cells, inhibitor).
CCC1(CO)CCCN(C(=O)c2ccc(CSC)o2)C1 (stereo not drawn) gave an IC50 of 439 µM (DNA dC->dU-editing enzyme APOBEC-3B; enzyme activity, inhibitor, HPLC).
For COc1cccc2c(=O)c(CO)coc12, the IC50 was over 31.6 µM (NNMT; enzyme activity in cells, inhibitor).
For N#CSc1sc(N)nc1-c1ccccc1, the IC50 was 17.5 µM (ppa; inhibitor, counter-screen, coupling enzyme alone).
With O=C1CC(c2ccccc2)N1S(=O)(=O)c1ccccc1 (stereo not drawn) the IC50 was 3 µM (glpG; enzyme activity, inhibitor).
With c1ccc(Nc2nc(NC3CCCCC3)c3ccccc3n2)cc1 the IC50 was over 50 µM (ADRB2; cAMP production, antagonist, GloSensor; with: isoproterenol 1 µM).
The IC50 of O=C(NC1CCC1)c1ccc2nc(-c3cccc(NS(=O)(=O)NCCc4c[nH]cn4)c3)cn2c1 is reported as 0.058 µM (Protein AF-9, YEATS domain (Homo sapiens, UniProt P42568); YEATS domain binding, inhibitor, HTRF).
With NC1=NCCc2ccccc21 the IC50 was over 31.6 µM (NNMT; enzyme activity in cells, inhibitor).
With N[C@@H](Cc1c[nH]c2ccc(OCc3ccccc3I)cc12)C(=O)O the IC50 was 16.6 µM (SLC7A5; transporter uptake, inhibitor, radiometric).
The IC50 of Cc1ccc(CN2C3(NC(c4ccc(C)cc4)C24C(=O)Nc2ccccc24)C(=O)Nc2ccccc23)cc1 (stereo not drawn) is reported as 0.882 µM (PIK3CD; enzyme activity, inhibitor, ADP detection).
With COc1ccc2c(c1)CN(C(=O)CCN1CCC(Cc3ccccc3)CC1)CCS2 the IC50 was 12.9 µM (CACNA1C (Homo sapiens, UniProt Q13936); ion current, inhibitor, patch clamp).
For Cc1nn(-c2cccc(N)c2)c(=O)c2cnc(Nc3ccc(N4CCNCC4)cc3)nc12, the IC50 was over 10 µM (PIK3C2A (Homo sapiens, UniProt O00443); kinase activity, inhibitor, SelectScreen kinase profiling).
For CN(c1ccccc1)c1nc(NC2CCCCC2)c2ccccc2n1, the IC50 was over 50 µM (ADRB2; β-arrestin recruitment, antagonist).
For CC[C@H](C)[C@H](NC(=O)[C@H](CCCCN)NC(=O)[C@H](CCCCN)NC(=O)[C@H](CC(=O)O)NC(=O)[C@@H](N)CCC(=O)O)C(=O)N[C@H](C(=O)N[C@H](C(=O)N[C@@H](CCSC)C(=O)N1CCC[C@H]1C(=O)N[C@@H](CS)C(=O)N[C@@H](CCCCN)C(=O)N[C@@H](CS)C(=O)N[C@@H](C)C(=O)N1CCC[C@H]1C(=O)N[C@@H](CO)C(=O)N[C@@H](CCCNC(=N)N)C(=O)N[C@@H](CCC(N)=O)C(=O)N[C@@H](CC(C)C)C(=O)N[C@H](C(=O)N[C@@H](CCC(N)=O)C(=O)N[C@H](C(=O)N[C@@H](Cc1c[nH]c2ccccc12)C(=O)N[C@@H](CC(C)C)C(=O)N[C@@H](CCC(N)=O)C(=O)N[C@@H](C)C(=O)N[C@@H](CCCCN)C(=O)N[C@@H](CCC(=O)O)C(=O)O)C(C)C)C(C)C)[C@@H](C)CC)C(C)C, the IC50 was 1.5 ± 0.03 µM (MAD2L2 (Homo sapiens, UniProt Q9UI95, R124A); REV7 complex disruption, inhibitor, fluorescence polarization; with: FAM-RBM1 peptide).
For O=C(O)Cc1cc2c(cc1C(=O)c1cccc(Cl)c1)OCO2, the IC50 was 4.27 µM (Gria1; glutamate-evoked current, inhibitor, whole-cell patch clamp; HEK293T, homomeric receptor).
With COc1cc(C(=O)/C=C/c2ccc(C(C)C)cc2)cc(OC)c1OC the IC50 was 1.57 µM (MAOB; enzyme activity, inhibitor).
CN(C)c1ccc(CCC(=O)N2C(=O)C3(NC(c4ccc(F)cc4)C4(C(=O)Nc5ccccc54)N3Cc3ccc(F)cc3)c3ccccc32)cc1 (stereo not drawn) has an IC50 of 0.273 µM (PIK3CD; enzyme activity, inhibitor, ADP detection).
The IC50 of COc1ccccc1C1CCN(c2nc(C3(F)CC3)nc3cnc(N(C)CCO)cc23)CC1 is reported as 14.6 µM (NTSR1; G protein activation, antagonist, BRET).
COc1cc(CF)c(C(N)=O)cn1 gave an IC50 of 0.631 µM (NNMT; enzyme activity in cells, inhibitor).
The IC50 of O=C(O)Cc1cc2c(cc1C(=O)c1ccccc1)OCO2 is reported as 5.63 µM (Gria1; ion current, patch clamp).
For COc1ccc(OC)c(C2=Nn3c(nnc3C3CCCCC3)SC2)c1, the IC50 was 550 µM (ppa; enzyme activity, inhibitor).
O=C(CCNC(=O)CNC(=O)CC(c1ccccc1)(c1ccccc1)c1ccccc1)NCC1CCN(C(=O)c2ccc(F)cc2)CC1 gave an IC50 of over 30 µM (CHRM5; ligand displacement, radioligand; cell membranes).
Fc1cccc(Nc2nc(NC3CCCCC3)c3ccccc3n2)c1 gave an IC50 of 0.4 µM (ADRB2; β-arrestin recruitment, antagonist).
COc1cccc2[nH]c(-c3ccccn3)nc12 has an IC50 of over 34 µM (Core-binding factor subunit beta, with RUNX1 Runt domain (Homo sapiens, UniProt Q13951); Runt domain binding, inhibitor, FRET).
The IC50 of CN(C)c1nc(NCc2ccc(F)cc2F)c(/N=N/c2ccc(Cl)cc2)c(N(C)C)n1 is reported as 0.12 µM (Chitinase (OfChi-h, Ostrinia furnacalis, UniProt Q4AE59); enzyme activity, inhibitor, fluorescence).
COc1ccc(C(=O)CC2(O)C(=O)Nc3cc(Cl)cc(Cl)c32)c(OC)c1 (stereo not drawn) gave an IC50 of over 100 µM (Uncharacterized protein; inhibitor, coupled colorimetric; Trypanosoma brucei).
The IC50 of Cc1nc(Nc2ccc3c(c2)/C(=C/c2ccccc2)C(=O)N3)c2ccccc2n1 is reported as 0.593 µM (PIK3CD; enzyme activity, inhibitor, ADP detection).
The IC50 of Nc1ncnc2c1ncn2C1OC(CSCCNCc2cccc(-c3ccccc3)c2)C(O)C1O (stereo not drawn) is reported as 4 ± 1 µM (DNA adenine methyltransferase CamA (Clostridioides difficile, UniProt Q183J3)).
With Fc1ccc(Nc2nc(NC3CCCCC3)c3cc(C(F)(F)F)ccc3n2)cc1F the IC50 was 0.2 µM (ADRB2 (Homo sapiens, UniProt P07550, N148A); β-arrestin2 recruitment, antagonist, BRET; HEK293; mutant N148A, with: isoprenaline 1 µM).
The IC50 of COc1ccccc1C1CCN(c2nc(C3(F)CC3)nc3cc(Cl)c(N(C)CCO)cc23)CC1 is reported as 5.56 µM (NTSR1; G protein activation, antagonist, BRET).
Cc1cc(O)c2c(c1)C(=O)c1c(O)c(O)cc(O)c1C2=O has an IC50 of ~20 µM and 20.4 µM (MAOB; enzyme activity, inhibitor).
Clc1ccccc1C1=Nn2c(nnc2C2CCCCC2)SC1 has an IC50 of 566 µM (Uncharacterized protein; inhibitor, coupled colorimetric; Trypanosoma brucei).
For C=C(NC(=O)c1csc(-c2nc3c(cc2O)-c2nc(cs2)C(=O)NC(C(C)O)C(=O)NC(=C(C)OC)c2nc(cs2)C(=O)NC2c4nc(cs4)C(=O)NC(COC(=O)c4c5c6c(cccc6n4O)COC(=O)C(OC4CC(C)(O)C(N(C)C)C(C)O4)C2OC5)c2nc-3cs2)n1)C(N)=O (stereo not drawn), the IC50 was over 50 µM (CYP2C19 (Homo sapiens, UniProt P33261); enzyme activity, inhibitor; human, liver microsomes; pH 7.4).
CNc1sc(C(=O)c2ccc(OC)cc2)c(N)c1C#N has an IC50 of 109 µM (Uncharacterized protein; enzyme activity, inhibitor, coupled colorimetric; with: E. coli pyrophosphatase coupling).
CCC(CC)C(=O)/C=C/C(=O)N1CCc2cc(Nc3ncc(C)c(-c4cnn(C(C)C)c4)n3)ccc2C1 has an IC50 of 0.00512 µM (JAK1 (Homo sapiens, UniProt P23458); enzyme activity, inhibitor, ADP detection).
O=c1c(-c2cnn(-c3ccc(Cl)cc3)c2)c(C(F)(F)F)oc2c(O)c(O)ccc12 has an IC50 of 9.3 µM (Cullin-4A (CUL4A, Homo sapiens, UniProt Q13619); enzyme activity, inhibitor, fluorescence).

A few entries again:
Cc1cc(O)c2c(c1)C(=O)c1c(O)c(O)cc(O)c1C2=O has an IC50 of ~20 µM and 20.4 µM (MAOB; enzyme activity, inhibitor).
The IC50 of CC1(C)C(=O)N=C2C1=C(O)C(=O)c1ccccc12 is reported as over 100 µM (EHMT1 (Homo sapiens, UniProt Q9H9B1); enzyme activity, inhibitor).
CNc1cc(C)c(C(N)=O)cn1 gave an IC50 of 0.0631 µM and < 0.1 µM (NNMT; enzyme activity in cells, inhibitor).
The IC50 of COc1ccccc1C1CCN(c2nc(C3(F)CC3)nc3cc(Cl)c(N(C)CCO)cc23)CC1 is reported as 5.56 µM (NTSR1; G protein activation, antagonist, BRET).
With Brc1cccc(Nc2nc(NC3CCCCC3)c3ccccc3n2)c1 the IC50 was 2.5 µM (ADRB2; β-arrestin recruitment, antagonist).
For CN(c1ccccc1)c1nc(NC2CCCCC2)c2ccccc2n1, the IC50 was over 50 µM (ADRB2; β-arrestin recruitment, antagonist).
